Assay results pooled from the literature.
Lines come from different studies, so protocols differ. ± gives the spread as reported.

For `C[C@H](CN(C)Cc1ccccc1)NC(=O)c1ccc(-c2noc(C(F)(F)[18F])n2)cc1`, the hippocampus-to-cerebellum ratio was 1.5 ± 0.59 (PET; Sprague-Dawley rat, female, hippocampus and cerebellum; intravenous, 10 min; reference: hippocampus SUV over cerebellum SUV).
Under “V/F central, bootstrap median”, `NS(=O)(=O)c1ccc(N2N=C(C(F)(F)F)CC2c2ccc(F)cc2F)cc1` (stereo not shown) is recorded as 6.6 L (population PK model, NONMEM; Beagle dog).
For `O=C([O-])CN1CCN(CC(=O)[O-])CCN(CC(=O)NCCc2ccc3c(c2)C2C=CCC2C(c2cc4c(cc2Br)OCO4)N3)CCN(CC(=O)[O-])CC1.[111In+3]` (stereo not shown), the tissue uptake was 0.05 ± 0.02 %ID/g (mouse, Hec50 endometrial tumour, brain; 4 h post injection).
`C=C(c1ncc(C(=O)O)cn1)c1cc2c(cc1C)C(C)(C)CCC2(C)C` has an HDL level of 30 ± 10.8 mg/dL (Sprague-Dawley rat, male, plasma; oral, 100 mg/kg, 12 h, sesame oil vehicle).
`CO[C@H]1/C=C/O[C@@]2(C)Oc3c(C)c(O)c4c(c3C2=O)C2=NC3(CCN(CC(C)C)CC3)NC2=C(NC(=O)/C(C)=C\C=C\[C@H](C)[C@H](O)[C@@H](C)[C@@H](O)[C@@H](C)[C@H](OC(=O)c2cccnc2)[C@@H]1C)C4=O` — result for “fAUC/MIC fold higher”: 128 fold (CD-1 mice; oral, 10 mg/kg; reference: rifabutin).
`Cc1cccc(O[C@H]2CCC[C@@H](C(C)CNCc3ccncc3)C2)c1` (relative stereo) has a Cmax of 775 ng/mL (female C57BL/6 mouse, plasma; intravenous, 3 mg/kg).
`Cn1c(=O)oc2ccc(-c3ccc(CC(C#N)NC(=O)C4CNCCCO4)c(F)c3)cc21` (stereo not shown): “bilirubin increased incidence” 0% (human; oral, 20 mg once daily, treatment-related AE, multiple ascending dose).
`CC(C)[C@H](NC(=O)CNC(=O)[C@H](CCC(N)=O)NC(=O)[C@H](C)N)C(=O)O` gave an AUC(0-inf) of 506 ng·h/mL (LC-MS/MS; human, plasma; intravenous, 20 mg/kg three times daily, day 1, first dose, 10 min infusion, geometric mean).
The absorbed dose of `[11CH3]c1ccc2nc(C3CCC3)n(-c3ccc4[nH]ncc4c3)c2n1` is reported as 2.5 µSv/MBq (extrapolated from mouse biodistribution; standard human, red marrow).
With `C=CC(=O)Nc1cc(Nc2nccc(-c3cn(C4CC4)c4ccccc34)n2)c(OC)cc1N(C)CCNC` the plasma concentration was 12.5 ng/g (radiolabelled metabolite profiling; human male, plasma; oral, 110 mg, 10 h).
`C[C@]12C[C@H](c3ccc(S(C)(=O)=O)cc3)C3=C4CCC(=O)C=C4CC[C@H]3[C@@H]1CC[C@@]2(O)C(F)(F)C(F)(F)F` gave an unbound fraction of 0.05 (human, plasma).
With `OCc1cn(Cc2ccc(-c3noc(-c4ccc(OCC[18F])c(C(F)(F)F)c4)n3)cc2)nn1` the tracer uptake was 1.45 %ID/g (rat, pancreas; intravenous, 2 h).
`Cc1ccc(-c2ccc(-c3cc4sccc4o3)cn2)nc1`: “fluorescence quantum yield” 0.66 (EtOH; with: quinine bisulfate reference).
For `CC12N3Cc4c(c(OCCCS(=O)(=O)[O-])c5ccccc5c4OCCCS(=O)(=O)[O-])CN1C(=O)N1Cc4c(c(OCCCS(=O)(=O)[O-])c5ccccc5c4OCCCS(=O)(=O)[O-])CN(C3=O)C12C.[Na+].[Na+].[Na+].[Na+]` (stereo not shown), “phase solubility slope” read 0.54 ± 0.032 (pD 7.4, with: camptothecin).
`O=C([O-])CN1CCN(CC(=O)[O-])CCN(CC(=O)[O-])CCN(CC(=O)[O-])CC1.[64Cu+2]`: “radiometal bound to chelator” 77% (human serum; 1 h, 37 °C, with: 64Cu).
With `Cc1nc(C)c(C=[N+]([O-])C(C)(C)C)nc1C` the Vss/F was 57.7 L (healthy human, both sexes, serum; oral, 1200 mg twice daily, 7 days).
With `CN(C)c1cc(CN2CCCCC2)c(O)c2c1C[C@H]1C[C@H]3[C@H](N(C)C)C(O)=C(C(N)=O)C(=O)[C@@]3(O)C(O)=C1C2=O` the Tmax was 4 h (cynomolgus monkey, plasma; oral, 5 mg/kg).
`COC(=O)c1ccc2c(c1)NC(=O)/C2=C(\Nc1ccc2c(c1)CCN2C(=O)CN1CCOCC1)c1ccccc1` has an AUC(0-t) of 5180 ng·h/mL (beagle dog, plasma; oral, 50 mg/kg, suspension).
`N=C(N)NCCC[C@@H]1NC(=O)[C@H](Cc2c[nH]c3ccccc23)NC(=O)[C@@H](CC2CCCCC2)NC(=O)[C@@H]2CCCN2C(=O)[C@@H](NC(=O)CCc2ccccc2)CCCNC1=O`: “apparent peripheral volume (V2/F)” 0.14 µg/(ng/g) (C57BL/6J mice, spinal cord; intraperitoneal, 1 mg/kg, two-compartment model).
For `CCCC[C@H](NC(=O)CNC(=O)CNC(=O)CN1CCN(CC(=O)O)CCN(CC(=O)O)CC1)C(=O)N[C@H]1CC(=O)NCCCC[C@@H](C(N)=O)NC(=O)[C@H](Cc2c[nH]c3ccccc23)NC(=O)[C@H](CCCNC(=N)N)NC(=O)[C@@H](Cc2ccccc2)NC(=O)[C@H](Cc2c[nH]cn2)NC1=O` [copper-64 labelled], the uptake ratio was 5.74 (female C57 mouse, B16/F1 melanoma; intravenous, 0.037 MBq, 24 h; reference: tumour over kidneys).
`CC[C@H](C)[C@H](NC(=O)[C@@H](NC(=O)[C@H](Cc1ccccc1)NC(=O)[C@@H](N)CC(=O)O)C(C)C)C(=O)N[C@@H](Cc1ccccc1)C(=O)N[C@@H](CC(C)C)C(=O)N[C@@H](CC(=O)O)C(=O)N[C@H](C(=O)N[C@@H](CCCCN)C(=O)N[C@@H](Cc1c[nH]cn1)C(=O)N[C@@H](Cc1ccccc1)C(=O)N[C@@H](CO)C(=O)N1CCC[C@H]1C(=O)N[C@@H](CCC(=O)O)C(=O)N[C@@H](CC(=O)O)C(=O)N[C@@H](CC(C)C)C(=O)N[C@H](C(=O)N[C@H](C(=O)N[C@@H](CCCCN)C(=O)O)C(C)C)[C@@H](C)O)C(C)C` — result for “CD minimum wavelength”: about 200 nm (circular dichroism; 5 mM phosphate; 28 µM, pH 7).
The compound depleted of `Oc1cc2nc(c1)CNCc1cc(O)cc(n1)CNC2` is reported as 31% (mouse hepatocytes; 2 µM, 0 to 240 min).
`Cc1ccccc1/N=N/c1ccc(/N=N/c2c(O)ccc3ccccc23)c(C)c1` gave a measured concentration of 0.501 µg/L (extracted rat blood QC samples; 0.5 µg/L, 12 h, room temperature, short-term stability).
`CC(C)C[C@@H](NC(=O)[C@H](NC(=O)[C@H]1CCCN1)[C@H](C)O)C(=O)N[C@H](Cc1c[nH]cn1)C(=O)N[C@@H](C(=O)N[C@H](Cc1c[nH]cn1)C(=O)N[C@H](CC(N)=O)C(=O)N[C@H](CCCNC(=N)N)C(=O)N[C@H](CCCNC(=N)N)C(=O)N[C@H](CCCNC(=N)N)C(=O)N[C@H](CCCNC(=N)N)C(=O)N[C@H](CCCNC(=N)N)C(N)=O)[C@H](C)O` gave a total clearance of 1.16 mL/min/kg (Beagle dog, plasma; intravenous, 3 mg/kg, single dose).
The measured concentration of `Oc1ccc2ccccc2c1/N=N/c1ccc(/N=N/c2ccccc2)cc1` is reported as 0.519 µg/L (extracted rat blood QC samples; 0.5 µg/L, 12 h, room temperature, short-term stability).
`[11CH3]Nc1ccc(-c2nc3ccc(O)cc3o2)cn1` — result for “peak brain radioactivity”: 2.5 to 3.5 % injected dose (PET; human, brain; intravenous, dose not given).
`CCN(c1cc(C#CCN2CCOCC2)cc(C(=O)NCc2c(C)cc(C)[nH]c2=O)c1C)[C@H]1CC[C@H](N(C)CCOC)CC1`: “scaled intrinsic clearance” 6 mL/min/kg (human liver microsomes; well-stirred model).
`O=C(NCCCN(CCCCN(CCCNC(=O)c1cccc(=O)n1[O-])C(=O)c1cccc(=O)n1[O-])C(=O)c1cccc(=O)n1[O-])c1cccc(=O)n1[O-].[89Zr+4]` has an intact complex of 98.4 ± 2.3% (radio-TLC; PBS; 1 h, pH 7.4, 37 °C, with: Ni^2+ 10-fold excess).
`CCC/C(=C\C1=C(C(F)(F)F)C(=O)c2ccccc2C1=O)C(=O)N(CC)CC` gave a CLint of 23.2 mL/min/kg (human liver S9; 1 µM, phase II UGT conditions).
For `NC(=O)CN1CCNC(=O)c2cccc(n2)C(=O)NCCN(CC(N)=O)CCN(CC(N)=O)CC1`, “log β (Pb2+ complex stability)” read 9.16 (potentiometric titration; water, 0.1 M KNO3; 25.0 °C, complex species LPb, with: Pb(NO3)2).
`C=C(c1cc(F)c(C(=O)O)c(F)c1)c1cc2c(cc1C)C(C)(C)CCC2(C)C` gave an HDL level of 61 ± 3.8 mg/dL (Sprague-Dawley rat, male, plasma; oral, 100 mg/kg, 9 h, sesame oil vehicle).
`CC(C)(Sc1ccncc1-c1ccc(C#N)c2ccccc12)C(=O)OC1OC(C(=O)O)C(O)C(O)C1O` (stereo not shown) has a terminal half-life of 20.8 h (plasma; oral, 15 mg, moderate renal impairment, fasted).
`CC(C)[C@H](NC(=O)[C@@H]1CCCN1C(=O)[C@H](CCCNC(=N)N)NC(=O)[C@H](CS)NC(=O)[C@H](Cc1c[nH]c2ccccc12)NC(=O)[C@H](CCCNC(=N)N)NC(=O)[C@@H](Cc1ccccc1)NC(=O)[C@H](Cc1c[nH]cn1)NC(=O)[C@H](CCC(=O)O)NC(=O)[C@H](CS)NC(=O)[C@H](CS)NC(=O)[C@@H]1CC(=O)N[C@@H](CCCNC(=N)N)C(=O)NCC(=O)N[C@@H](CC(=O)O)C(=O)N[C@H](Cc2ccc(O)cc2)C(=O)N1)C(N)=O` [technetium-99m labelled]: “tumour to tissue ratio” 80.6 (C57 mouse, female, B16/F1 melanoma; intravenous, 0.037 MBq, 2 h; reference: tumour over muscle).
`CCCC[C@@H]1NC(=O)[C@@H](NC(=O)[C@H](CCC(=O)O)NC(=O)CNC(=O)CN2CCN(CC(=O)O)CCN(CC(=O)O)CCN(CC(=O)O)CC2)CCCCNC(=O)C[C@@H](C(N)=O)NC(=O)[C@H](C(C)C)NC(=O)[C@@H]2CCCN2C(=O)[C@H](CCCNC(=N)N)NC(=O)CNC(=O)[C@H](Cc2c[nH]c3ccccc23)NC(=O)[C@H](CCCNC(=N)N)NC(=O)[C@@H](Cc2ccccc2)NC(=O)[C@H](Cc2c[nH]cn2)NC(=O)[C@H](CCC(=O)O)NC1=O` [gallium-67 labelled]: “tumour to blood ratio” 259 (C57 mice with B16/F1 melanoma; intravenous, 0.037 MBq/mouse, 2 h; reference: tumour over blood).
`CC(C)(O)c1ncc([S@](N)(=O)=NC(=O)Nc2c3c(cc4c2CCC4)CCC3)s1` — result for “number of TEAEs”: 64 (healthy humans; oral, dose not given, study all active).
For `C#CCOc1ccc(/C=C2\SC(=O)N(CC(=O)NCc3ccccc3)C2=O)cc1`, “Kirkwood-Buff integral G2,3” read -393 cm³/mol (inverse Kirkwood-Buff integrals; binary solvent mixture; 298.15 K, mole fraction x1 0.30).
`NC[C@@H](C(=O)Nc1ccc(-c2cn[nH]c2)cc1)c1ccccc1` — result for “ocular irritation score”: 0 (OECD 405, item: Iris; New Zealand White rabbit; topical, 0.1 %, 25 h, day 2; direction not given).
`CN(C)CCNC(=O)/C=C/C(Cc1ccccc1)Nc1ccnc2cc(Cl)ccc12` (stereo not shown) gave an AUC of 148 ng·h/mL (ICR mouse healthy, plasma; oral, 5 mg/kg).
The tracer uptake of `C[C@H](Oc1cc(-c2cnn(C3CCN(CC[18F])CC3)c2)cnc1N)c1c(Cl)ccc(F)c1Cl` is reported as 2.2 ± 0.7 %ID/cc (PET imaging; nude mouse, kidney; iv, 60 min post injection).
Under “enthalpy of dissociation”, `COc1ccc(NC(=O)[C@H](CCCCN)NC(=O)c2cc(NC(=O)[C@H](CCCCN)NC(=O)c3cc(NC(=O)[C@H](CCCCN)NC(=O)c4cc(NC(=O)[C@@H](N)CCCCN)ccc4OC)ccc3OC)ccc2OC)cc1C(=O)NCCC(=O)O` is recorded as 13.8 kcal/mol (ITC heats of dilution; TBS; pH 7.4, 25 °C, hexamer to monomer).
For `COc1cc(NC(C)=O)c2c(c1O)-c1c(OC)c(OC)cc3c1C(C2)N(C)CC3` (stereo not shown), the remaining compound was 110 ± 1.9% (rat heart homogenate; 5 µg/mL, time not given, three freeze-thaw cycles).
For `COc1ccc2c(O)c(C(=O)Nc3ccc(CN)cc3)ccc2c1`, the t1/2 was 0.883 h (rat liver microsomes; 1 µM, with: NADPH).
With `CCCCCCCCCCCCCCCC(=O)OCC(CSC[C@H](N)C(=O)NCC(=O)N[C@@H](CC(=O)O)C(=O)N1CCC[C@H]1C(=O)N[C@@H](CCCCN)C(=O)N[C@@H](Cc1c[nH]cn1)C(=O)N1CCC[C@H]1C(=O)N[C@@H](CCCCN)C(=O)N[C@@H](CO)C(=O)N[C@@H](Cc1ccccc1)C(=O)O)OC(=O)CCCCCCCCCCCCCCC` (stereo partly shown) the half-life was 14.2 h (LC-MS/MS; rhesus monkey, non-irradiated, plasma; subcutaneous, 0.09 mg/kg single dose).

For quick reference, copied from above:
`C=C(c1cc(F)c(C(=O)O)c(F)c1)c1cc2c(cc1C)C(C)(C)CCC2(C)C` gave an HDL level of 61 ± 3.8 mg/dL (Sprague-Dawley rat, male, plasma; oral, 100 mg/kg, 9 h, sesame oil vehicle).
The absorbed dose of `[11CH3]c1ccc2nc(C3CCC3)n(-c3ccc4[nH]ncc4c3)c2n1` is reported as 2.5 µSv/MBq (extrapolated from mouse biodistribution; standard human, red marrow).
